Published values gathered from unrelated publications.
Parts stem from different laboratories: compare values within a part only.

Block 1 — technique: protein-binding microarray; form: double-stranded DNA, one strand shown; matrix: in vitro; tested at: 250 nM; setting: 60-bp whole probe; added: salmon DNA 0.4 mg/ml; reference: random background probes; reading: higher = stronger binding; measurement: log fluorescence; shared flanks, not repeated: GCCTAGCAC … GTCTTGATTCGCTTGACGCTGCTG
Target: Interferon regulatory factor 7, full length, phosphomimetic (IRF7, Homo sapiens, UniProt Q92985, residues 1-503, S101K/S471D/S472D/S475D/S476D/S477D/S483D/S484D/S487D)
Target sequence (chain): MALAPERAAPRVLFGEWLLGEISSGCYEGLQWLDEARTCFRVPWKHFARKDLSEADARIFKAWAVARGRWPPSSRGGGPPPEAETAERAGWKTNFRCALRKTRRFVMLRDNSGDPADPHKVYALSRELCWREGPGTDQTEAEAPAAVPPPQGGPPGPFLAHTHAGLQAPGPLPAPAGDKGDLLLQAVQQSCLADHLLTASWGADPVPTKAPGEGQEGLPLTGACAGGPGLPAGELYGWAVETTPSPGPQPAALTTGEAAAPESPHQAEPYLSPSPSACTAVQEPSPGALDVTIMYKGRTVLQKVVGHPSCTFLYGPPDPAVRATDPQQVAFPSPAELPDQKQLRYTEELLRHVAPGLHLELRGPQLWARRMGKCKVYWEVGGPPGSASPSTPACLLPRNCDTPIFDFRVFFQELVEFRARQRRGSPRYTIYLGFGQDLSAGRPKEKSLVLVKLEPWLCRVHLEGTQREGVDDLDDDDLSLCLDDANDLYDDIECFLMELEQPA
GACGAACTGAGGCTCGAGACGTGCTAG: 0.231 z-score
TTAGATAACAGTTTCGATTAGTGCTAG: 8.46 z-score
GACGGTTTCGGGTTTCGGGTCGTGCTA: 13 z-score
TCAACTCTGTTTTCGCTTACTGTGCTA: 1.4 z-score
GACGGAGTGGGGTTTCGGGACGTGCTA: 1.05 z-score
TCAACTCTCTCCATGTGACTGTGCTAG: -0.0487 z-score
CACAGAATCCCCTTCTACTCGTGCTAG: 0.203 z-score
GACGGTATCCTTTTCCTAACGTGCTAG: 1.48 z-score
TTAGATTTCAATTCCGATTAGTGCTAG: 0.718 z-score
TTAGACATCGGGACTGGATTAGTGCTA: -0.321 z-score
GACGGTTTAGGTCTCGGGACGTGCTAG: 0.42 z-score
TTTGGTATCCTTTTCCTTTAGTGCTAG: 1.78 z-score
TCAAATTACCTTTTCACACTGTGCTAG: 1.06 z-score
GACGATTTCAGTATCGCGACGTGCTAG: 0.511 z-score
CACGGTATCCTTATCCTGACGTGCTAG: 0.259 z-score
GACGATTTCAGTTCCGAGTCGTGCTAG: 1.23 z-score
GACGGTTTCCTTTCACTGACGTGCTAG: 7.04 z-score
GATGAAGATGTAGAACTTTTGTGCTAG: -0.706 z-score
GACGGTATCGGTCTTGGGACGTGCTAG: 0.176 z-score
TCAATATTGAGACTCATACTGTGCTAG: 0.582 z-score
TTAGTTTTCGGGTATCGGTTAGTGCTA: 3.4 z-score
CACGGTCTCCTTCTCCTGACGTGCTAG: 0.195 z-score

Block 2 — technique: RNA Bind-n-Seq; form: RNA; matrix: in vitro; tested at: 200 nM; setting: whole 134-nt RNA, ends assumed; added: 150 mM KCl; reference: input library; reading: higher = stronger binding; measurement: log2 enrichment
Target: Ras GTPase-activating protein-binding protein 1, full length (G3BP1, Homo sapiens, UniProt Q13283)
UniProt Q13283, sequence (whole entry, looked up): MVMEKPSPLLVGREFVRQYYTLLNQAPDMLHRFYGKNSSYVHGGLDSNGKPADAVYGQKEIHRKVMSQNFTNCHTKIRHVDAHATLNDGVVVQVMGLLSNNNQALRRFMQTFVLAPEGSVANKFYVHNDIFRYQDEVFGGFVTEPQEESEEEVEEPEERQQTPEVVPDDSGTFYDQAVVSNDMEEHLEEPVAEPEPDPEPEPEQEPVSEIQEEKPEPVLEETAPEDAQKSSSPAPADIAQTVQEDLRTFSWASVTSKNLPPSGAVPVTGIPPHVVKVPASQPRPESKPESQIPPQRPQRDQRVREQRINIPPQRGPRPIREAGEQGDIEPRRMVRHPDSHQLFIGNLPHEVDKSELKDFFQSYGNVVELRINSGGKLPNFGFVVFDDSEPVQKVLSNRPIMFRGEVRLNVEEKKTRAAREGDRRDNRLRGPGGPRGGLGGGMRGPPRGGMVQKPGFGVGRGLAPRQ
Shared flanks, not repeated: GGGAGUUCUACAGUCCGACGAUC … UGGAAUUCUCGGGUGUCAAGG
GCAGGAAGUAAUAACAAAUGGAAAUGCUUCGGAUAGUGGCAGGGGUGGGGGUUGCUAAGGAAAGGGUGGGAUGGGAGUGGGUAAAGAGUU: 1.18
GCAGGAAGGAAAAACAAAUGGAAAUGCUUCGGAUAGUGGCAGGGGUGGGGGUUGCUAAGGAAAGGGUGGGAUGGGAGUGGGUAAAGAGUU: 1.62
CAAGUCCUGUGCUACACAUCGUAUGUACCGAAUCGGGUUUGGGUUUGGUUUGGGGAAAGUAUUAUGUUACGCCGUUCGGAUCUGCACUUC: 0.172
GCAGGAAGUAAAAACAAAUGGAAAUGCUUCGGAUAGUGGCAGGUGUGGGGGUUGCUAAGGAAAGGGUGGGAUGGGAGUGGGUAAAGAGUU: 0.936
UAACUUUAGAGGAGGAUCUGAUGGAUAUGGCAGUGGACGUGGAUUUGGGGAUGGCUAUAAUGGGUAUCGAGGAGGACCUGGAGGUGGCAA: 0.13
ACCAUGCAGGUGGGCAUCUUUGGGAAGUGGGGGAAGGGGGGGAUAGGGAGGGGGGUAACACUUUGGGAACAGGUGGUCCCAGGUCGUUUC: 1.47
CAAGUCCUGUGCUACACAUCGUAUGUACCGAAUCGGGGAAAGGGGAAAGGGAAAGGAAAGUAUUAUGUUACGCCGUUCGGAUCUGCACUU: -0.0499
UGGGAGGUGGAUUUUGUUUAUUUUUUUAGCUCAUUUCCAGGGGUGGGAAUUUUUUUUUAAUAUGUGUCAUGAAUAAAGUUGCUUUUGAAA: 0.216
CCUGUGCUACACAUCGUAUGUACCGAAUCGGAAAAAAAGGGGAAAAAAAGGAAAAAAAGGAAAGUAUUAUGUUACGCCGUUCGGAUCUGC: -0.772
AGAUGAACAAGAGAACUGGGCAACCCAUGAUCCACAUCUACCUGGACAAGGAAACAGGAAAGCCCAAAGGCGAUGCCACAGUGUCCUAUG: -1.5
ACCAUGCAGGUGGGCAUCUUUGGGAAGUGGGCCAAGGGGGGGAUAGGGAGGGGGGUAACACUUUGGGAACAGGUGGUCCCAGGUCGUUUC: 1.45
GCAGGAAGUAAAAACAAAUGGAAAUGCUUCGGAUAGUGGCAGGGGUGAAAGUUGCUAAGGAAAGGGUGGGAUGGGAGUGGGUAAAGAGUU: 0.734
AGUCCUGUGCUACACAUCGUAUGUACCGAAUCGGGCCCCGGCCCCGGGGCCCCGGGGAAAGUAUUAUGUUACGCCGUUCGGAUCUGCACU: -1.56
UCCUGUGCUACACAUCGUAUGUACCGAAUCGGUUUUUUGGGGUUUUUUGGUUUUUUGGGAAAGUAUUAUGUUACGCCGUUCGGAUCUGCA: -0.67

Block 3 — technique: universal PBM; form: double-stranded DNA, one strand shown; matrix: in vitro; tested at: 600 nM; reading: higher = stronger binding; measurement: E-score
Target: Sal-like protein 4, full length isoform A (SALL4, Homo sapiens, UniProt Q9UJQ4, residues 1-1053)
UniProt Q9UJQ4, sequence (whole entry, looked up): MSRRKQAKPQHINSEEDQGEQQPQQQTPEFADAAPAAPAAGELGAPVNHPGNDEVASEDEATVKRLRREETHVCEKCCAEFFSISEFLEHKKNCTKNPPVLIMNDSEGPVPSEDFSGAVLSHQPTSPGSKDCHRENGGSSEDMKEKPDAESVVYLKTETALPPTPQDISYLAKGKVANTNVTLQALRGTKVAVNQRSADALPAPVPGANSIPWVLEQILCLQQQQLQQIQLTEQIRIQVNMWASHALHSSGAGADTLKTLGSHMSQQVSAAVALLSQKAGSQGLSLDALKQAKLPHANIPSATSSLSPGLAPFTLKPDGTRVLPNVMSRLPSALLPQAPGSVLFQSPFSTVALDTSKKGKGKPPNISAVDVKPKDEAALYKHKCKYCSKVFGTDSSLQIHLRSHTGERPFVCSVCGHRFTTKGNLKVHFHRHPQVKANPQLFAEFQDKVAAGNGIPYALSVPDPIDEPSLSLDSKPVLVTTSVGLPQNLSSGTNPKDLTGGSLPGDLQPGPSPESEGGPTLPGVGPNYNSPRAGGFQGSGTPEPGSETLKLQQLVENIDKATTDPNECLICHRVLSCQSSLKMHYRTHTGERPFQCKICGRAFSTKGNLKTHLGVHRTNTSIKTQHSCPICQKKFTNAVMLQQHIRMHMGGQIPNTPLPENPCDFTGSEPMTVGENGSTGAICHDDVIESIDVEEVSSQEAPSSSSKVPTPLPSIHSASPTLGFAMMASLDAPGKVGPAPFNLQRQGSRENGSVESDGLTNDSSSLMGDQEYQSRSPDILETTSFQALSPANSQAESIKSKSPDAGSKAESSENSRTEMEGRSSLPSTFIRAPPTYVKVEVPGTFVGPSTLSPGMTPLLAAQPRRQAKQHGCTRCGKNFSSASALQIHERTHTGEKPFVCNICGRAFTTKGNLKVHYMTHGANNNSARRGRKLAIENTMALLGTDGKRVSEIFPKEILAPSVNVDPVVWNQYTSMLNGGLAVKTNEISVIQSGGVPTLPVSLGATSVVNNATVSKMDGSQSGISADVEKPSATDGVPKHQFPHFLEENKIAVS
Setting: 8-mer, flanks averaged, mean of replicates
TCCAGTCA: -0.104
TAACACGA: 0.153
GAGTAGGA: -0.0666
ACTATTCT: 0.104
AAGCCAAC: 0.0957
ACATAGGA: 0.0608
GTAGGCGA: -0.168
AGTGTTTA: 0.226
TACGCAAA: 0.09
ACGCCTTC: -0.114
AGGATAAA: 0.231
TGACTCCA: -0.0724
ACTACAGC: -0.123
ACTACCGG: -0.272
GGAACAGA: -0.0243
TAGATGAA: 0.233
CCCACGGC: -0.309
AATTCGTA: 0.289
CAGTAGAA: 0.0649
GGTTACGA: 0.0133
ACGTAAAG: 0.242
CAGGCTCG: -0.239
GGGGTCGA: -0.239
ACTCTTGA: 0.0695

Block 4 — technique: RNA Bind-n-Seq; form: RNA; matrix: in vitro; tested at: 365 nM; reference: no-protein control; reading: higher = stronger binding; measurement: RBNS enrichment (R)
Target: RNA binding protein fox-1 homolog 2, RRM domain, GST-SBP tag (RBFOX2, Homo sapiens, UniProt O43251-10, residues 100-194)
Setting: natural RNA segment, single round, ends assumed
Shared flanks, not repeated: GGGAGUUCUACAGUCCGACGAUC … UGGAAUUCUCGGGUGCCAA
Residues (chain): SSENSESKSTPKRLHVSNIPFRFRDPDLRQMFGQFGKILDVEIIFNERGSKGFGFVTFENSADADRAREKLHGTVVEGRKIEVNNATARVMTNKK
UGUAUACUCUUCUAUAAAUAAAAGGGAGGAAUAUAUUCUGCUGGAAGCCCAUGAACCAUCGCUGAGGUUCUGAUACAACAUAGAGUUUUUUCCAAGGAGUGAAUGUGGUU: 1.26
UGUUAUUAUUAUUGUUAUUAUUAACAAUCUUGGGUGGGUAGUAGGAGAGCAAAAAGUAUGAAUGGGAUGGAGCUAAGAAGUCUGAAUACUUAAUGAAAUGGACUUUUUGG: 2.18
CAGUCUGAGAGAAGUCUCCUUUGAGAAGGGCCAAGAGGCUCUUUCCUGAGUGUUUGCUUUCGGUUUGUUGGUAUGCCUGUAUUGCUGGGCUGUGCUGCUGCUCGAAGCAG: 3.3
UUUGAAAAUAGAAUAAAUAAUAAGAAUUUCCAAUUAAAUCAUGUCUGGUGCCAAUGUGCAAAACUUCCAUGUGUUUUUGUGAUUGGAGUUUAUUUCAUGGCUUUAUUCUA: 0.577
CAUGGAAUAAAGGAAAGUUUACUCUUCUGAUUAUAAGCUGAGGAUGCUAUGUUGCAGUUUGUUUGCUUGUUUUUUUCUUCUGAGCUUUGUUUCUAGUACACGAUAUGACG: 1.48
AUCAACCUAAGUUGGAAACAGAAAGUGUGUCUAGUGUCAUUGAAGUGCGUGCUUGGCAGUUCCAUGUUACCUACCACCCAUUAGUUAGCAAGCGAACUUAGUGCCACAGG: 0.741
AGAGAAUUUAGGCAGUGCAAAGGAGUAUUCUUGUGUGUUUGUGUUGAGUCAUUCUGUCCAUUCCUCCACCAGCUCCUGGGCACCACCUGAGAAACCGUGCUCUCUAAGUU: 0.314
UAGCCAAGUUGUGUACCUCAGUCUUUAGUUUCCAAGCGGCUCUCUUGCUCAAUACAAUGUGCAUUUCAAAAUAACACUGUAGAGUUGACAGAACUGGUUCAUGUGUUAUG: 0.304
AGAGAAAACAUUCUAUAGCCCUCCUUCCUAGGUGUUACCAUUCACUGAAUCUUCUCUCAGAGGGAGAUGAGCAAUUGUCAGUCAGGAUAAUUCUGUUUGCUAAAUGUUGC: 0.374
GCCUCACCGUCUGCCUUGCUCCUCUCUUCCCAAAUCAUCACCGCCAUGGGCCCAGCCCCAAAGGGCAGUGAAUGGCCUUCUCUGAAACCCUGCGUCAAGCAGUGGGAGAG: 0.376
CACUUAAAGUCUUCAGCCCAGCUACUUCCCUAUUUUUGUGGGGAGAAGAGGGCCUGAUUAGAACUGUUCUGGUUGUGUUUGGCGGGAGGGGAAUAAUUUUUGUUCAGUCC: 0.31
GUAAAACUGAAAUUAUUAUUAGCCAAUGCAUUGGUGCAUAGAAUUUACUAGGGCUACUUCUGGAAGCCAAAAUAGAAUAGCAUUUCCAUGUGCAUUAAAUACUUUGCCAG: 0.523
